# Measurements collected from several papers.
# Each numbered part is a random draw from the data of one study; scales do not carry over between parts.

# Study 1
# Target: Histone acetyltransferase KAT6A, winged helix 2, GST fusion (KAT6A, Homo sapiens, UniProt Q92794, residues 85-181)
# Method: protein binding microarray
# Molecule type: double-stranded DNA, one strand shown
# Matrix: in vitro
# Tested at: not given
# Notes: 8-mer, flanks averaged, mean of 2 arrays, mostly near background
# Baseline: not given
# Reading: higher = stronger binding
# Residues (chain): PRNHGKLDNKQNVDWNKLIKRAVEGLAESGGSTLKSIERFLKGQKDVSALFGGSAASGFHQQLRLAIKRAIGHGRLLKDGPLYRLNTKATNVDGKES
Oligonucleotide,E-score
ACTAGATC,-0.145
ACGTGCTA,-0.178
AGGAGGAG,0.0492
CCAGCGCC,0.0274
GCGCCCGA,0.255
GCTTTTTA,0.111
AGTGGCCA,-0.0959
AAAACCCT,-0.0575
GATTGTAC,-0.279
CCCGCTCG,0.0501
AAGGATAA,-0.127
AACGTACG,-0.249
CAGCATGC,0.056
CGCTCAAG,0.0301
CCGACTTC,-0.0777
AGGTTGCC,0.0781
ATCGTGCG,0.117

# Study 2
# Target: Interferon regulatory factor 7, full length, phosphomimetic (IRF7, Homo sapiens, UniProt Q92985, residues 1-503, S471D/S472D/S475D/S476D/S477D/S483D/S484D/S487D)
# Method: protein-binding microarray
# Molecule type: double-stranded DNA, one strand shown
# Matrix: in vitro
# Tested at: 2200 nM top
# Notes: 60-bp whole probe
# Together with: salmon DNA 0.4 mg/ml
# Baseline: random background probes
# Reading: higher = stronger binding
# Shared flanks, not repeated: GCCTAGCAC … GTCTTGATTCGCTTGACGCTGCTG
# Residues (chain): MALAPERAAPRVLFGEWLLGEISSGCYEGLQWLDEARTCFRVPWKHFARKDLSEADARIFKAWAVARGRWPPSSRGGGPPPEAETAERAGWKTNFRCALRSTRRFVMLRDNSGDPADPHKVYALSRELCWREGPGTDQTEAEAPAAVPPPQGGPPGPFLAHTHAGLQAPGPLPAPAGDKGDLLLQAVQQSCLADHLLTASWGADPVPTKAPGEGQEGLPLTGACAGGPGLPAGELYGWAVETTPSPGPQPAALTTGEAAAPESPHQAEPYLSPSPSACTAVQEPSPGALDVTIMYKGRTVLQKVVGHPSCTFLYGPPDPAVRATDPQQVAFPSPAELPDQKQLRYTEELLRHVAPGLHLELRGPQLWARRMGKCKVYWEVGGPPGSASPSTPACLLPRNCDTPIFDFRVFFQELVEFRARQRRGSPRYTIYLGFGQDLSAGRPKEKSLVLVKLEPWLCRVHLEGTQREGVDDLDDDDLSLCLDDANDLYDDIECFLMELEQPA
Oligonucleotide,fitted relative affinity
TTAGAACTGAGACTGGAGTAGTGCTAG,-0.715 z-score
TCTTTTTTTTCTTTAAAAGTGTGCTAG,1.58 z-score
ACAGGACAGTCCCATCTACCGTGCTAG,0.31 z-score
GACGGACTGCTTCTCGTGACGTGCTAG,0.238 z-score
TCAGGTTGAACATGAACACTGTGCTAG,0.219 z-score
AATGCCCTCGGTTTACAGGGGTGCTAG,2.58 z-score
TTAGGTCTCGGTATCGGTCAGTGCTAG,0.681 z-score
TTAGAACTGGGGTATCGATGAGTGCTA,-0.286 z-score
TTTGAACTGGGGTTTCGATTAGTGCTA,2.52 z-score
GATGGACTGCTTCTCCTGACGTGCTAG,0.756 z-score
GACGGTTTCAACACTGGGGACGTGCTA,0.793 z-score
TTAGGGCTGGGTCTCGGTTAGTGCTAG,-0.756 z-score
CTAGATATCAGTTTCGATTAGTGCTAG,5.9 z-score
GCTGTTCTCAGACTGGGTGCGTGCTAG,1.04 z-score
AGGGCGGCTGAGTCAGCACAGTGCTAG,-1.26 z-score
GACGGTTTCGGACTGCGGACGTGCTAG,4.2 z-score
TTAGGACCGGACACTGGGTTAGTGCTA,-1.04 z-score
GACGGTTTCGAATTTCGGGACGTGCTA,5.12 z-score
GACGGTATCAGGACTGGGGACGTGCTA,-0.465 z-score
TCAGTCCTCCTGACTGGGACTGTGCTA,0.283 z-score
TTAGGTATCGGTCTCGGCTAGTGCTAG,0.472 z-score
TTAGGTCTCGGTATGGGTTAGTGCTAG,0.593 z-score
GGCCATTTCCCTTGCCGCGCGTGCTAG,0.322 z-score
TCACCTGTCTACATGGGACTGTGCTAG,0.942 z-score
TTAGGTCTCCTTTTGCTTTAGTGCTAG,1.87 z-score

# Study 3
# Target: RNA binding protein fox-1 homolog 2, RRM domain, GST-SBP tag (RBFOX2, Homo sapiens, UniProt O43251-10, residues 100-194)
# Method: RNA Bind-n-Seq
# Molecule type: RNA
# Matrix: in vitro
# Tested at: 365 nM
# Notes: natural RNA segment, single round, ends assumed
# Baseline: no-protein control
# Reading: higher = stronger binding
# Construct (chain): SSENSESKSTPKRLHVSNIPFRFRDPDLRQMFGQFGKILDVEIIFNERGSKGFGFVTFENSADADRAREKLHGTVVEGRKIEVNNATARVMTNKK
Oligonucleotide,RBNS enrichment (R)
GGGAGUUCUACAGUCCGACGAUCUCUUCUGGGAACCCUGCCCACUCCCAGGACCAAGAUUGGCCUGAGGCUGCACUAAAAUUCACUUAGGGUCGAGCAUCCUGUUUGCUGAUAAAUAUUAAGGAGAAUUCAUGUGGAAUUCUCGGGUGCCAA,1.02
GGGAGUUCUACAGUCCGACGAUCGAUAAAAGCAUCUGCAGGUCCCUCCAAGACGAGAAGAGCAACAUCAUGCUCUUUGCUUCUGUCUAUGUGGAAAUCUCCGUUUGCAGCCAAAAUCUGGGGGCUGCCACUGUUGGAAUUCUCGGGUGCCAA,0.399
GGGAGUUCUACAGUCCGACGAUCAUUGUAAACUUUUUCAAUGGUUGGGACAAUGGCAAUAGGACAAAACGGGUUACUAAGAUGAAAUUGCCAAAAAAAUUUAUAAACUAAUUUUGUACGUAUGAAUGAUAUCUUGGAAUUCUCGGGUGCCAA,0.575
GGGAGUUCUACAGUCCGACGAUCCUGUUGUAUAUCAGACUUAAUUUUGUCAGCUGAUAGUAUAUAGUGACUGAUGAGUCAGUCACAGUUCCACUGACUCCCAGUUACUGUUCUGAUUAGUGGUAGUUAUUUGCUGGAAUUCUCGGGUGCCAA,0.46
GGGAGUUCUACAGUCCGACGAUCUGGUAUUUCUUACAUGAUUUUUUGUUUUCCUCUGUUGCUAGAUAAAUAGAAACUAAUAAUAGCUCUAUUUCUCUGCCAAUAUAAAAUCUACCUUUCAUAUAAUGCUACAUUGGAAUUCUCGGGUGCCAA,0.477
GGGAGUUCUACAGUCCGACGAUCUAACUGCAAAAAGUUAGUCUUAUGUAUAGACAUUAUUUUCGUCGUAUGUUUCUAUAUUUUGAAACAGGUAUGUAACUUCUUCAUUUGAAGGAUAAGCUGGUUUGUGUUAAUGGAAUUCUCGGGUGCCAA,0.922
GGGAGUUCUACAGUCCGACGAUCUCUUGUGUCAUGUGUAGGCUGUAAUAUGUGUACAUUGUGUUUAAGAGAAAAAUGAAACCCACAUGCCGCCAUUUUCCUGAAUCAAAUUCUGCAGUGGAAUGGAGAGGAAAUGGAAUUCUCGGGUGCCAA,0.254
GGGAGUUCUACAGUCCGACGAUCCAUCUCUUGUUCCCACUACUGAAUUCUUAUAAAGUGGUGGCAAGAUAGGGAAGGGAUAAUCUGAGAAUUUUUAAAAGAUGAUUUAAUGAGAAGAAGCACAAUUUUGAUUUUGGAAUUCUCGGGUGCCAA,0.983
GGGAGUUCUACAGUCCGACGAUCUCUGUAGUUAACAGAACACUGUAAUGUGCCUUGCAGCUUAGUAACUUGUAAUAAAUUCAAUUGAUAUAAUUCUGCCCUGAGUCAGCAAAUUUGUCUUUCUAGGGUUGAAGUGGAAUUCUCGGGUGCCAA,4.48
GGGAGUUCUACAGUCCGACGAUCGUAUAUAAUAUUUAAGAUGCUGAGUAUUUCAUAGGAAAGCUGAAUGCUGCUGUAAAGUGCUCUUUAAGUCUUUUUUUUUUUUAAUCCCCUUCUAAUGAAUGAAACUAGGGUGGAAUUCUCGGGUGCCAA,1.38
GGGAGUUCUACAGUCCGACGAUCUGUCUCCUUCCUGGAGAGGCUAUUAGGAGCCUUGUUGCUGGGGUGCAUAUGCUUAUAUGUGAAUGUGUCCACAAAUCCCACCCCCUCUCCGUUCUGUCCCCCAUUCAAGGUGGAAUUCUCGGGUGCCAA,0.39
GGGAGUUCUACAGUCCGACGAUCUAAUGAUGGGGAUGCAUUCUGAGAAAUGUGUCAUUAGGCUGUUUUGUUGCUGUGCCAACAUCCUAGAUUGUACUUACACAACCUACAUGGUAUAGCCUACUACACACCUGUGGAAUUCUCGGGUGCCAA,0.444

# Study 4
# Target: Ras GTPase-activating protein-binding protein 1, C-terminal RGG region (G3BP1, Homo sapiens, UniProt Q13283)
# Chain of UniProt Q13283 (whole entry, looked up): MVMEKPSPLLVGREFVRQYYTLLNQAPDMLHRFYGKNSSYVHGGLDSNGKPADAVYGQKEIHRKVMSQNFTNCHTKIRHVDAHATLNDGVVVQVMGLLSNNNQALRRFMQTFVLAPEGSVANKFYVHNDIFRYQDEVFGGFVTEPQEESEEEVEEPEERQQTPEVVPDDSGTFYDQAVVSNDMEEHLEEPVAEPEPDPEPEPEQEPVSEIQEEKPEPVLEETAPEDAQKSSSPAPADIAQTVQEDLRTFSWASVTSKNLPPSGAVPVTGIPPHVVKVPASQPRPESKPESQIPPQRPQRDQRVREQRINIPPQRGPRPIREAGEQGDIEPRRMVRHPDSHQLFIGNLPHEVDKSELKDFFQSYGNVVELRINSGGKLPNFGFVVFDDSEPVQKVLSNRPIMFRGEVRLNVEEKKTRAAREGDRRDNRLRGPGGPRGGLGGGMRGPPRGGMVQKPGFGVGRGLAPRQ
# Method: RNA Bind-n-Seq
# Molecule type: RNA
# Matrix: in vitro
# Tested at: 1 µM
# Notes: whole 134-nt RNA, ends assumed
# Together with: 150 mM KCl
# Baseline: input library
# Reading: higher = stronger binding
Oligonucleotide,log2 enrichment
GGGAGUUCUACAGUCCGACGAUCGUCCUGUGCUACACAUCGUAUGUACCGAAUCGGCCCCCCGGCCCCCCGGGCCCCCCGGAAAGUAUUAUGUUACGCCGUUCGGAUCUGCACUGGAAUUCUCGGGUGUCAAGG,-0.739
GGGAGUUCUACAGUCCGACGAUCUAACUUUAGAGGAGGAUCUGAUGGAUAUGGCAGUGGACGUGGAUUUGGGGAUGGCUAUAAUGGGUAUGGAAGAGGACCUGGAGGUGGCAAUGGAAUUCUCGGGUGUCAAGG,-0.516
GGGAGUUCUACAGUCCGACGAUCAGUCCUGUGCUACACAUCGUAUGUACCGAAUCGGUUUUUGGGUUUUUGGUUUUUGGGAAAGUAUUAUGUUACGCCGUUCGGAUCUGCACUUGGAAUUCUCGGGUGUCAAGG,-1.5
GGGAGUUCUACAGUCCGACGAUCCAAGUCCUGUGCUACACAUCGUAUGUACCGAAUCGGGUUUGGGUGGGUUUUUGGGAAAGUAUUAUGUUACGCCGUUCGGAUCUGCACUUCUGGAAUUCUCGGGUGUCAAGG,1.8
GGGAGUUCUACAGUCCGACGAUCUCCCAGCCGAGGACGUCGGAUGUCAUCGUCCUUGCUGCUUUGCCACCCCAUUCCCGUCAAUAAAGUGGUUUGAACCCAACCCUGGUGUCGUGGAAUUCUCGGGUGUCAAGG,-0.752
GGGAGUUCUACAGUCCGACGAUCUGGGAGGUGGAUUUUGUUUAUUUUUUUAGCUCAUUUCCAGGGGUGGGACUUUUUUUUUAAUAUGUGUCAUGAAUAAAGUUGUUUUUGAAAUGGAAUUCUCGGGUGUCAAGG,2.95
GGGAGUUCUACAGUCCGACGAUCCCUCAAGUCCUGUGCUACACAUCGUAUGUACCGAAUCGGGGUGGGGUGGGUGGAAAGUAUUAUGUUACGCCGUUCGGAUCUGCACUUCCAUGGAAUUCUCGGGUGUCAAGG,1.32
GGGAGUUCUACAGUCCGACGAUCCAAGUCCUGUGCUACACAUCGUAUGUACCGAAUCGGGGAAAGGGGUGGGGAGGGGAAAGUAUUAUGUUACGCCGUUCGGAUCUGCACUUCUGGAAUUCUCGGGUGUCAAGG,2.85
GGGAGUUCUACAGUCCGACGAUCUUUUUUGUAGUAGGGAGAUCCUUGAUCAUCAGGAUGGUAAUGUAGAAGAUGAUGGGCUUACAGGACUCCUAAGGCUUGCAACAAGUGUUGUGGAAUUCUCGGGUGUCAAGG,0.0285
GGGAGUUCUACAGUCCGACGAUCUCCUGUGCUACACAUCGUAUGUACCGAAUCGGGUUUUUGGGUUUUUUUGGGAAAAAGGGAAAGUAUUAUGUUACGCCGUUCGGAUCUGCAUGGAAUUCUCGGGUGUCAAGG,-0.555
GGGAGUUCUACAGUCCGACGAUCUCAAGUCCUGUGCUACACAUCGUAUGUACCGAAUCGGUUUUUUUGGAAAGGUGGAAAGUAUUAUGUUACGCCGUUCGGAUCUGCACUUCCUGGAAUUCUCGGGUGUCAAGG,-1.11
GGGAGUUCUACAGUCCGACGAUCAGUCCUGUGCUACACAUCGUAUGUACCGAAUCGGUUUUUGGAAAAAAAGGAAAAAGGAAAGUAUUAUGUUACGCCGUUCGGAUCUGCACUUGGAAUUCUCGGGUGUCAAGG,-2.33
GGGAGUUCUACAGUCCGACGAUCUGGCCCUGGUGGCAUGCGGGGAGGAAGAGGUGGCCUCAUGGAUCGUGGUGGUCCCGGUGGAAUGUUCAGAGGUGGCCGUUGUGGAGACAGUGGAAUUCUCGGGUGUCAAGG,3.46
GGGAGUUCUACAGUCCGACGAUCUCAAGUCCUGUGCUACACAUCGUAUGUACCGAAUCGGGUUGGGGUUGGGUUGGGGAAAGUAUUAUGUUACGCCGUUCGGAUCUGCACUUCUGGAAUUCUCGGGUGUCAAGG,2.83

# Excerpt of the above (study 1):
Oligonucleotide,E-score
GCTTTTTA,0.111
CCCGCTCG,0.0501
ACGTGCTA,-0.178
AGTGGCCA,-0.0959
